Measurements collected from several papers.
Every numbered part comes from another study and shows a few of its results, in no order. Changes are numbered by the printed parent chain.

Series 1
Target: CRIPT, C-terminal peptide
Method: DHFR complementation, deep sequencing
Matrix: yeast
Setting: single substitutions, model-inferred values
Relative to: wild type
Reading: higher = weaker binding
Parent: ERBIN, PDZ domain 1 (human); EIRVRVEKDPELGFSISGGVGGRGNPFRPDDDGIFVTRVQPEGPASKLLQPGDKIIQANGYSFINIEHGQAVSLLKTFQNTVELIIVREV; partner TKNYKQTSV
Change	binding free energy change [kcal/mol]
S62T	0.0797
A71N	1.32
I2P	0.6
S17D	1.51
K47M	0.0916
H68R	1.51
E67F	0.271
A58W	2.18

Series 2
Target: Ras GTPase-activating protein-binding protein 1, full length (G3BP1, Homo sapiens, UniProt Q13283)
Sequence of UniProt Q13283 (whole entry, looked up): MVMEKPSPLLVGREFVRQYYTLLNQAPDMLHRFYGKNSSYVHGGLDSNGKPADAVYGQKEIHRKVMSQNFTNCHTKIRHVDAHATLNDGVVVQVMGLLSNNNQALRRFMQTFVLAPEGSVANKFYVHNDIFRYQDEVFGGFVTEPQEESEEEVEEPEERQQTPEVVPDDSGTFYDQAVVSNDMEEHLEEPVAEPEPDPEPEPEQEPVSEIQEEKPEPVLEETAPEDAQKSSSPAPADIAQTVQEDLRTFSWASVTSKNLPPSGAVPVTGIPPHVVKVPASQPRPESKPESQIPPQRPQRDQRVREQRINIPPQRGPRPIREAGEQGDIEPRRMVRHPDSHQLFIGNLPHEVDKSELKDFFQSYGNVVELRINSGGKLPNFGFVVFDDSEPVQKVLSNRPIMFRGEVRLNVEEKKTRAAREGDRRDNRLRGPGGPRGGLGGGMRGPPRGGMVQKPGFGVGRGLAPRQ
Method: RNA Bind-n-Seq
Molecule type: RNA
Matrix: in vitro
Concentration: 200 nM
Setting: whole 134-nt RNA, ends assumed
Together with: 150 mM LiCl
Relative to: input library
Reading: higher = stronger binding
All molecules: 7-deaza-guanosine replaces G
Constant ends, left off below: GGGAGUUCUACAGUCCGACGAUC … UGGAAUUCUCGGGUGUCAAGG
Sequence	log2 enrichment
UAACUUUAGAGGAGGUUCUGAUGGAUAUGGCAGUGGACGUGGAUUUGGGGAUGGCUAUAAUGGGUAUGGAGGAGGACCUGGAGGUGGCAA	-0.271
UCCUGUGCUACACAUCGUAUGUACCGAAUCAAAUUUUUUUAAAUUUUUAAACCCCCAAAAAAGUAUUAUGUUACGCCGUUCGGAUCUGCA	1.09
CCUCAAGUCCUGUGCUACACAUCGUAUGUACCGAAUCGGCCGGGCCGGCCGGAAAGUAUUAUGUUACGCCGUUCGGAUCUGCACUUCCAG	-0.127
GCAGGAAGUAAAAACAAAUGGAAAUGCUUCGGAUAGUGGCAGGGGUAGGGGUUGCUAAGGAAAGGGUGGGAUGGGAGUGGGUAAAGAGUU	0.303
CAAGUCCUGUGCUACACAUCGUAUGUACCGAAUCGGCCCCGGGCCCCGGCCCCGGGAAAGUAUUAUGUUACGCCGUUCGGAUCUGCACUU	-0.313
UCCUCAAGUCCUGUGCUACACAUCGUAUGUACCGAAUCGGGCGGCGGCGGGAAAGUAUUAUGUUACGCCGUUCGGAUCUGCACUUCCAGC	1.15

Series 3
Target: CCNB1, cyclin fold, Cln2 fusion (human)
Method: yeast growth competition, sequencing
Matrix: yeast
Setting: weak parent motif
Relative to: not given
Reading: higher = stronger binding
Parent: RB1 docking peptide (human); PKPLKKLRFDIEG
Change	normalised enrichment score
D10M	1.16
I11A	1.17
E12M	0.644
G13K	0.829
G13R	1.11
D10K	0.705

Other studies, line by line
Substance	target	test	system	setting	scale	measurement	result
PhoQ, residues 284 288 289 292 302 303 AGGLSV	PhoP, residues 12 14 15 18 19 AQALL (Escherichia coli, UniProt P23836)	Sort-seq, refers to: YFP reporter	E. coli	PhoQ-PhoP variant library, together with: 10 µM Mg2+	relative to: high Mg2+ state, higher = stronger signaling	fold induction	3.15

A few entries again (series 1):
Change	binding free energy change [kcal/mol]
K47M	0.0916
H68R	1.51
E67F	0.271
